Experimental data gathered from unrelated publications.
± marks the error that the study gave.
SNCA: Alpha-synuclein (SNCA, Homo sapiens, UniProt P37840)
EPHX2: Bifunctional epoxide hydrolase 2 (EPHX2, Homo sapiens, UniProt P34913)
TRPA1: Transient receptor potential cation channel subfamily A member 1 (TRPA1, Homo sapiens, UniProt O75762)
GBA1: Lysosomal acid glucosylceramidase (GBA1, Homo sapiens, UniProt P04062)
Nr3c1: Glucocorticoid receptor (Nr3c1, Rattus norvegicus, UniProt P06536)

| Compound | tested on | assay | system | conditions | scale | endpoint | value |
| --- | --- | --- | --- | --- | --- | --- | --- |
| C=CC(=O)N1C[C@H](C)N(c2nc(OC[C@@]34CCCN3C[C@H](F)C4)nc3c(F)c(-c4ccc(F)c5sc(N)nc45)c(C(F)(F)F)cc23)C[C@H]1C | GTPase KRas, GDP-bound (KRAS, Homo sapiens, UniProt P01116, C118S/G12C) | MALDI-TOF MS |  | 15 min, GDP-loaded |  | covalent modification | > 90% |
| CC[C@H](C)[C@H](NC(=O)CNC(C)=O)C(=O)N[C@@H](CCCNC(=N)N)C(=O)N[C@@H](CCC(=O)O)C(=O)N[C@@H](C)C(=O)N[C@H](C(=O)N[C@@H](CC(C)C)C(=O)N[C@@H](CCCNC(=N)N)C(=O)N[C@@H](C)C(=O)N[C@@H](Cc1c[nH]c2ccccc12)C(=O)N[C@@H](CCC(=O)O)C(=O)N[C@@H](CCCNC(=N)N)C(=O)N[C@@H](CCCNC(=N)N)C(=O)N[C@@H](Cc1ccc(O)cc1)C(=O)NCC(N)=O)[C@@H](C)O | Antirepressor protein CarS (carS, Myxococcus xanthus, UniProt Q06911) | ITC |  | concentration not given, pH 7.5, 25 °C |  | binding stoichiometry | 0.97 ± 0.02 |
| CC(C)C[C@@H]1NC(=O)[C@H](CCCCN)NC(=O)[C@H](Cc2c[nH]cn2)NC(=O)[C@H](Cc2c[nH]c3ccccc23)NC(=O)CNC(=O)[C@H](CC(C)C)NC(=O)[C@@H](Cc2ccc(O)cc2)NC(=O)CSC[C@@H](C(=O)NCC(=O)N[C@@H](CCCCN)C(=O)N[C@@H](CCCCN)C(=O)N[C@@H](CCCCN)C(N)=O)NC(=O)[C@H](CO)NC(=O)[C@H](CCCNC(=N)N)NC(=O)CNC(=O)[C@H](Cc2ccc(O)cc2)NC(=O)[C@@H]2CCCN2C(=O)[C@H](CCC(N)=O)NC(=O)[C@H](Cc2ccccc2)NC(=O)[C@H](Cc2c[nH]c3ccccc23)NC1=O | SNCA | FRAP |  | 200 µM, 1 h, room temperature, droplets |  | fluorescence recovery | ~8% |
| [64Cu+2].c1cnc(CNCc2ccc(CN3CCCN4CCNCCCN(CC4)CC3)cc2)nc1 | CXCR4 |  | NOD/SCID mouse, U87 and U87-stb-CXCR4 xenografts, kidney | iv, 450 min, ex vivo |  | tissue uptake | 25.4 ± 3.38 %ID/g |
| COc1cc(C(=O)NC2CCC(N3CCN(CC4CCC5(CCCC5)C4)CC3)CC2)c(F)cc1Nc1ncc2c(n1)N(C1CCCC1(F)F)CC(F)(F)C(=O)N2C (stereo not drawn) | Cyclin-dependent kinase 8 (CDK8, Homo sapiens, UniProt P49336) | cell-free assay, TR-FRET |  | 10 µM |  | inhibition | 5.28% |
| COC(=O)Nc1ccc2c(c1)c(Cc1ccc(C(=O)NS(=O)(=O)c3ccc(C(F)(F)F)cc3)cc1OC)cn2C | Tumor necrosis factor receptor superfamily member 1A (Homo sapiens, UniProt P19438) | TNF-induced IκB degradation, inhibitor | HEK293 cells | 0.01 to 500 nM |  | IκB degradation | inhibited |
| CC(C)CSC(=S)N1CCN(C(=O)/C=C/c2coc3ccccc3c2=O)CC1 | tomato spotted wilt virus | viral infection, half-leaf method | Nicotiana glutinosa | 500 µg/mL |  | curative effect | 48.3 ± 3.5% |
| CONC(=O)C1CCCN(C(=O)c2ccc(NC(=O)NC34CC5CC(C)(CC(C)(C5)C3)C4)cc2)C1 (stereo not drawn) | EPHX2 |  |  |  |  | lipophilic ligand efficiency | 6.89 |
| CC1=C(/C=C/C(C)=C/C=C/C(C)=C/C=O)C(C)(C)CCC1 | Cyclic nucleotide-gated channel alpha-1 (CNGA1, Bos taurus, UniProt Q00194) | ion current, inhibitor, patch clamp |  | 200 nM, holding potential -50 mV, added: cGMP 2 mM |  | fast time constant of inhibition | 77 s |
| O=C(NC[C@@H](Cc1ccc(F)cc1)N1CCC(O)(C(F)(F)F)CC1)C1(c2ccc(Cl)cc2)CCCC1 | TRPA1 | calcium influx, agonist | HEK293F transfected |  | reference: AITC 300 µM | Emax | 46 ± 1.3% |
| CC(/C=C/C(=O)NO)=C\[C@@H](C)C(=O)c1ccc(N(C)C)cc1 | Histone deacetylase 8 (HDAC8, Homo sapiens, UniProt Q9BY41) | ITC | Tris-HCl buffer | concentration not given, pH 7.5, 25 °C |  | binding stoichiometry | 0.8 ± 0.1 |
| CCN(CC)CCCSC(=S)N1CCN(C(=O)/C=C/c2coc3ccc(OC)cc3c2=O)CC1 | tomato spotted wilt virus | viral infection, half-leaf method | Nicotiana glutinosa | 500 µg/mL |  | inactivation effect | 60.1 ± 5.9% |
| CCCCCCCCOP(=O)(Cc1ccccc1)O[C@@H]1O[C@H](CO)[C@@H](O)[C@H](O)[C@H]1F (stereo partly drawn) | GBA1 | enzyme activity, irreversible inhibitor |  | pH 5.5, 37 °C, added: 2,4-dinitrophenyl beta-D-glucopyranoside |  | inactivation rate constant | 3.67 min⁻¹ |
| N=C(N)NCCC[C@H](NC(=O)[C@H](CC(=O)O)NC(=O)[C@@H]1CSCC(=O)NCC(=O)N[C@@H](Cc2c[nH]cn2)C(=O)N[C@H](Cc2ccccc2)C(=O)N[C@@H](CCCNC(=N)N)C(=O)N[C@@H](Cc2c[nH]c3ccccc23)C(=O)N1)C(=O)N[C@@H](Cc1ccccc1)C(=O)NCC(N)=O | Melanocortin receptor 5 (MC5R, Homo sapiens, UniProt P33032) | cAMP accumulation, agonist | HEK293 expressing MC5R | 10 µM | reference: MT-II | activation | 31% |
| COc1ccc(NC(=S)Nc2cccc3[nH]ccc23)cc1 | SNCA | fibril formation, ThT fluorescence kinetics |  | 100 µM, α-syn 2 µM, plateau phase | reference: DMSO vehicle | maximum ThT fluorescence | 25 ± 2% |
| CC12CC3CC(C)(C1)CC(NC(=O)Nc1ccc(C(=O)N4CCC(C(=O)NC5CC5)CC4)cc1)(C3)C2 | EPHX2 |  |  |  |  | lipophilic ligand efficiency | 5.86 |
| CCN(C(=O)C1CCN(S(=O)(=O)c2ccc3[nH]ncc3c2)CC1)[C@H]1CCc2ccccc21 | Muscarinic acetylcholine receptor M5 (Rattus norvegicus, UniProt P08911) | calcium mobilization | CHO cells expressing rat M5 | added: acetylcholine EC20 |  | positive allosteric modulation | inactive |
| N[C@@H](Cc1ccc(O)c(Cl)c1)C(=O)O | Iodotyrosine deiodinase 1 (Homo sapiens, UniProt Q6PHW0) | substrate, stopped-flow |  | 200 µM |  | k1 | 1.5 s⁻¹ |

| Compound | tested on | assay | system | conditions | scale | endpoint | value |
| --- | --- | --- | --- | --- | --- | --- | --- |
| CCCCCCCCCCCC(=O)Nc1ccc(OC)nc1C | Cocaine esterase (CES2, Homo sapiens, UniProt O00748) | substrate |  | 50 µM, pH 8, 37 °C, enzyme purity 4% |  | specific activity | 29 pmol/min/µg |
| CCCCCCCCCCCSc1nc2c([nH]1)c(=O)n(C)c(=S)n2C | Nr3c1 | reporter gene, antagonist, MMTV-luciferase | T47D/A1-2 | 10 µM, 24 h, added: 5 nM dexamethasone | reference: maximal activity | remaining activity | 95% |
| CCCCOP(=O)(CCCC)O[C@@H]1O[C@H](CO)[C@@H](O)[C@H](O)[C@H]1F (mixture of isomers) | GBA1 | enzyme activity, irreversible inhibitor |  | pH 5.5, 37 °C, added: 2,4-dinitrophenyl beta-D-glucopyranoside |  | kinact/Ki | 31.2 M⁻¹ s⁻¹ |
| CC(C)(C)CCN1C[C@@H]2[C@@H](CNC(=O)c3cc(Cl)cc(Cl)c3)[C@@H]2C1.Cl | Voltage-dependent T-type calcium channel subunit alpha-1H (CACNA1H, Homo sapiens, UniProt O95180) | whole-cell patch clamp | HEK-293T, transfected | 100 nM |  | activation slope factor | 6.81 ± 0.15 mV |
| Nc1nc(SCc2ccc(Cl)cc2)nn1S(=O)(=O)c1ccc2c(c1)CCO2 | Lysophospholipase-like protein 1 (Mus musculus, UniProt Q3UFF7) | activator, gel-based ABPP FP-rhodamine |  | concentration not given | reference: DMSO | fold activation | ~2.5 fold |
| CCc1nc2cc3ccccc3cc2cc1C(=O)N1CCC[C@H]1C(=O)N[C@@H](C/C=C\C[C@H](NC(=O)[C@@H]1CCCN1C(=O)c1cc2cc3ccccc3cc2nc1CC)C(=O)N[C@@H](CCCCN)C(=O)NCCCN)C(=O)N[C@@H](CCCCN)C(=O)NCCCN | CUG–CAG duplex RNA | SPR |  |  |  | residence time | 801 s |
| CC1=CC(C)=[N+]2C1=C(CCCCc1cn(C[C@@H]3[C@@H](O)[C@H](O)[C@@H](O)[C@@H]4O[C@H]34)nn1)c1c(C)cc(C)n1[B-]2(F)F | Lysosomal acid glucosylceramidase (GBA1, Homo sapiens, UniProt P04062, R534H) | thermal stability, tryptophan fluorescence |  | saturating, pH 5.2 |  | Tm increase | 21 °C |
| CCCCCCCCCSc1nc2c([nH]1)c(=S)n(C)c(=O)n2C | Nr3c1 | reporter gene, antagonist, MMTV-luciferase | T47D/A1-2 | 10 µM, 24 h, added: 5 nM dexamethasone | reference: maximal activity | remaining activity | 51% |
| CN(C)c1ccc(/N=N/c2ccc(C(=O)NCc3cn(CCOCCOC(CC(=O)NCCNc4cccc5c(S(=O)(=O)O)cccc45)O[C@@H]4O[C@H](CO)[C@@H](O)[C@H](O)[C@H]4O)nn3)cc2)cc1 (stereo partly drawn) | GBA1 | enzyme activity, substrate |  | recombinant human enzyme |  | kcat/Km | 130 ± 9 M⁻¹ s⁻¹ |
| NC(=O)C1CCNC(=O)C(CCCNC(=O)c2cnccn2)NC(=O)C(Cc2ccco2)NC(=O)C(CC=Cc2ccccc2)NC(=O)C=CC(=O)N1 (stereo not drawn) | Dual specificity mitogen-activated protein kinase kinase 6 (MAP2K6, Homo sapiens, UniProt P52564) | DNA-templated library selection |  | one selection round |  | enrichment factor | 1.1 |
| CNC(=O)c1cccc([C@@H]2C[C@H]2NC2CCC2)c1 (racemic) | Lysine-specific histone demethylase 1A, with CoREST (KDM1A, Homo sapiens, UniProt O60341) | inhibitor, LC-MS |  |  | reference: total FAD species | relative N-formyl-FAD adduct | 2% |
| CNc1ccccc1C(=O)O[C@H]1C[C@H](n2cnc3c(N)ncnc32)O[C@@H]1COP(=O)(O)OP(=O)(O)O | Unconventional myosin-Va (Gallus gallus, UniProt Q02440, D297C/G292C/I296C/S293C/V295G) | stopped-flow FRET, linear fit intercept |  | 25 °C, added: EDTA 4 mM |  | dissociation rate constant | 82.3 ± 4.52 s⁻¹ |
| [123I]c1ccc2nc(-c3ccc(-n4ccnn4)nc3)cn2c1 | Amyloid-beta precursor protein, amyloid-beta (APP, Homo sapiens, UniProt P05067) | SPECT | Alzheimer's disease patients, cortical average | 150 to 240 min | reference: cerebellum | SUVR | 1.26 ± 0.25 |
| C=C1C(=O)OC2C1CCC(C)=C1CCC(C)(OC(=O)CCCCCCCCCCCNC(=O)CCCCC3SCC4NC(=O)NC43)C12 (stereo not drawn) | Ras-related protein Rab-2A (RAB2A, Homo sapiens, UniProt P61019) | competitive pull-down LC-MS/MS | M9-ENL1 cell lysate | added: probe 10 µM | reference: MCL-treated control | enrichment ratio | 7 fold |
| CCCC[C@H](C)/C=C(C)/C=C/C(=O)O | TRPA1 | ion current, whole-cell patch clamp | HEK-293T transfected | 5 µM, holding potential -60 mV, added: 100 µM AITC |  | recovery time constant | 7.3 ± 2.1 ms |
| CCCCCCCCCSc1nc2c([nH]1)c(=O)n(C)c(=S)n2C | Nr3c1 | reporter gene, antagonist, MMTV-luciferase | T47D/A1-2 | 10 µM, 24 h, added: 5 nM dexamethasone | reference: maximal activity | remaining activity | 100% |
| Nc1ncc(-c2nc(N3CCOCC3)nc(N3CCN(C(=O)CCC(=O)N4CCN(CCCCCCNc5cccc6c5C(=O)N(C5CCC(=O)NC5=O)C6=O)CC4)CC3)n2)c(C(F)F)n1 (stereo not drawn) | Phosphatidylinositol 4,5-bisphosphate 3-kinase catalytic subunit beta isoform (PIK3CB, Homo sapiens, UniProt P42338) | degrader, parallel reaction monitoring | MCF7 | 1 nM, 6 h |  | degradation | 20% |
| O=S(=O)(NC1=NCCCCC1)c1ccc2sc(NS(=O)(=O)c3ccc4ccccc4c3)nc2c1 | Kelch-like ECH-associated protein 1 (Mus musculus, UniProt Q9Z2X8) | ligand-detected NMR |  | 50 µM, protein 5 or 2.5 µM |  | binding | binds |

For quick reference, copied from above:
| Compound | tested on | assay | system | conditions | scale | endpoint | value |
| --- | --- | --- | --- | --- | --- | --- | --- |
| CNC(=O)c1cccc([C@@H]2C[C@H]2NC2CCC2)c1 (racemic) | Lysine-specific histone demethylase 1A, with CoREST (KDM1A, Homo sapiens, UniProt O60341) | inhibitor, LC-MS |  |  | reference: total FAD species | relative N-formyl-FAD adduct | 2% |
| CN(C)c1ccc(/N=N/c2ccc(C(=O)NCc3cn(CCOCCOC(CC(=O)NCCNc4cccc5c(S(=O)(=O)O)cccc45)O[C@@H]4O[C@H](CO)[C@@H](O)[C@H](O)[C@H]4O)nn3)cc2)cc1 (stereo partly drawn) | GBA1 | enzyme activity, substrate |  | recombinant human enzyme |  | kcat/Km | 130 ± 9 M⁻¹ s⁻¹ |
